{"data": "Measured values gathered from unrelated publications", "note": "Every numbered part comes from another study and shows a few of its results, in no order.", "sequence of UniProt P42338 (whole entry, looked up)": "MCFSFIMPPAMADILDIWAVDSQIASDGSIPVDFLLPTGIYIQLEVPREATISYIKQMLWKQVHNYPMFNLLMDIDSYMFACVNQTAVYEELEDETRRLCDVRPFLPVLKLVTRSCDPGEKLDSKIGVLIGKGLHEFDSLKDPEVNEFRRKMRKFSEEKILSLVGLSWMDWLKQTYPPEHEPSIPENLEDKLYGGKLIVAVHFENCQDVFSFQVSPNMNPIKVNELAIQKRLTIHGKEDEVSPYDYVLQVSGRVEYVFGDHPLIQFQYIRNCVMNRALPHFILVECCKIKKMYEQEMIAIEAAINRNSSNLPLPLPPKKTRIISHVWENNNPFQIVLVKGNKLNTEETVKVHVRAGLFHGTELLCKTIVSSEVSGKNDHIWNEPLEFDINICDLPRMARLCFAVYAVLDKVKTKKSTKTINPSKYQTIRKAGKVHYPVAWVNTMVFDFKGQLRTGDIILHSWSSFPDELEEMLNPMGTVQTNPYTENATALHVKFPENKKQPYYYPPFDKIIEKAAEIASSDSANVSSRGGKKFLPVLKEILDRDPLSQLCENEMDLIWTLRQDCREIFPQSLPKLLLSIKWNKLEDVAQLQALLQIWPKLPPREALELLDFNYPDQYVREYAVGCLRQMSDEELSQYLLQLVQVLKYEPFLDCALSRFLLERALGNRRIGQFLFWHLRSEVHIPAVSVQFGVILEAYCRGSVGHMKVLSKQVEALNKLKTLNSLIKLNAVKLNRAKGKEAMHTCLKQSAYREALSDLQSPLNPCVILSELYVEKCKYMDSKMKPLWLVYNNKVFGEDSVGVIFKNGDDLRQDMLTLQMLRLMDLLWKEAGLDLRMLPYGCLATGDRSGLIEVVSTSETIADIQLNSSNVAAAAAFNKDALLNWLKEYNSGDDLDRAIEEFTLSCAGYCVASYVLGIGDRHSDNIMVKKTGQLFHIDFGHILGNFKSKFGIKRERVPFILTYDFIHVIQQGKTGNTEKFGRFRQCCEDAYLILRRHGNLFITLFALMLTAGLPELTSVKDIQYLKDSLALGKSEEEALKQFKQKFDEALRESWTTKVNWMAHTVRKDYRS"}
{"data": "Series 1", "SMILES": "CNc1ncc2cc(-c3cc(OC)cc(OC)c3Cl)c(=O)n(CCc3ccc(NC(=O)C(C#N)=CC(C)(C)N4CCOCC4)cc3)c2n1", "observed": "kinase activity", "PAK4": "Serine/threonine-protein kinase PAK 4 (PAK4, Homo sapiens, UniProt O96013)", "sequence of UniProt O96013 (whole entry, looked up)": "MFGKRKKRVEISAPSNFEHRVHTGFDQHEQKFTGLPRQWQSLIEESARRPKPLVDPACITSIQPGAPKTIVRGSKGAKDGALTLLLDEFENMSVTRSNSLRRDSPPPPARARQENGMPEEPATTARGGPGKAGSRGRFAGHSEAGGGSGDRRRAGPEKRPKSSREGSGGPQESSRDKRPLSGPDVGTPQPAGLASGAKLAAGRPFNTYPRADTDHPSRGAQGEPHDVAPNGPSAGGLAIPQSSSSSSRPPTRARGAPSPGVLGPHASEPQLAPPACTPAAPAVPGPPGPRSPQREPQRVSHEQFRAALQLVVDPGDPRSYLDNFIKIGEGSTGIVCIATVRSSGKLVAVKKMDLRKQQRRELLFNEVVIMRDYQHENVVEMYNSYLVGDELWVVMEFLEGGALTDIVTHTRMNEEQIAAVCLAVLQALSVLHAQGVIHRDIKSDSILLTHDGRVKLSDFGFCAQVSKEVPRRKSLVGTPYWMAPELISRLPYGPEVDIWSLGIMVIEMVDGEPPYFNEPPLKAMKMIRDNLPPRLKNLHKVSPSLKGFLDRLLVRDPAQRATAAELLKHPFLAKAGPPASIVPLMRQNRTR"}
{"target": "PAK4", "tested at": "0.1 µM", "inhibition [%]": -1}
{"target": "SRSF protein kinase 2 (SRPK2, Homo sapiens, UniProt P78362)", "tested at": "0.1 µM", "inhibition [%]": 2}
{"target": "RAF proto-oncogene serine/threonine-protein kinase (RAF1, Homo sapiens, UniProt P04049)", "tested at": "0.1 µM", "inhibition [%]": 13}
{"target": "Tyrosine-protein kinase receptor UFO (AXL, Homo sapiens, UniProt P30530)", "tested at": "1 µM", "inhibition [%]": 3}
{"target": "Phosphatidylinositol 4,5-bisphosphate 3-kinase catalytic subunit gamma isoform (PIK3CG, Homo sapiens, UniProt P48736)", "tested at": "0.1 µM", "inhibition [%]": 3}
{"target": "SRSF protein kinase 3 (SRPK3, Homo sapiens, UniProt Q9UPE1)", "tested at": "0.1 µM", "inhibition [%]": 1}
{"target": "Phosphatidylinositol 4,5-bisphosphate 3-kinase catalytic subunit beta isoform (PIK3CB, Homo sapiens, UniProt P42338)", "tested at": "0.1 µM", "inhibition [%]": -6}
{"target": "Protein kinase C gamma type (PRKCG, Homo sapiens, UniProt P05129)", "tested at": "0.1 µM", "inhibition [%]": 1}
{"target": "Serine/threonine-protein kinase Sgk3 (SGK3, Homo sapiens, UniProt Q96BR1)", "tested at": "1 µM", "inhibition [%]": 1}
{"target": "PAK4", "tested at": "1 µM", "inhibition [%]": -1}
{"target": "Serine/threonine-protein kinase 24 (STK24, Homo sapiens, UniProt Q9Y6E0)", "tested at": "0.1 µM", "inhibition [%]": 1}
{"target": "Mitogen-activated protein kinase 9 (MAPK9, Homo sapiens, UniProt P45984)", "tested at": "0.1 µM", "inhibition [%]": 5}
{"target": "RAC-beta serine/threonine-protein kinase (AKT2, Homo sapiens, UniProt P31751)", "tested at": "1 µM", "inhibition [%]": 4}
{"target": "Non-receptor tyrosine-protein kinase TYK2 (TYK2, Homo sapiens, UniProt P29597)", "tested at": "1 µM", "inhibition [%]": 2}
{"target": "cAMP-dependent protein kinase catalytic subunit PRKX (PRKX, Homo sapiens, UniProt P51817)", "tested at": "0.1 µM", "inhibition [%]": -1}
{"target": "Ephrin type-A receptor 8 (EPHA8, Homo sapiens, UniProt P29322)", "tested at": "1 µM", "inhibition [%]": -3}
{"target": "Calcium/calmodulin-dependent protein kinase type IV (CAMK4, Homo sapiens, UniProt Q16566)", "tested at": "0.1 µM", "inhibition [%]": 4}
{"target": "Ephrin type-B receptor 4 (EPHB4, Homo sapiens, UniProt P54760)", "tested at": "0.1 µM", "inhibition [%]": 1}
{"target": "Serine/threonine-protein kinase haspin (HASPIN, Homo sapiens, UniProt Q8TF76)", "tested at": "1 µM", "inhibition [%]": 6}
{"target": "Cyclin-dependent kinase 5 (CDK5, Homo sapiens, UniProt Q00535)", "tested at": "1 µM", "inhibition [%]": 3}
{"target": "Rhodopsin kinase GRK7 (GRK7, Homo sapiens, UniProt Q8WTQ7)", "tested at": "1 µM", "inhibition [%]": -13}
{"data": "Series 2", "target": "E3 ubiquitin-protein ligase NEDD4 (Homo sapiens, UniProt P46934)", "observed": "enzyme activity", "action": "inhibitor", "technique": "TR-FRET", "tested at": "100 µM", "sequence of UniProt P46934 (whole entry, looked up)": "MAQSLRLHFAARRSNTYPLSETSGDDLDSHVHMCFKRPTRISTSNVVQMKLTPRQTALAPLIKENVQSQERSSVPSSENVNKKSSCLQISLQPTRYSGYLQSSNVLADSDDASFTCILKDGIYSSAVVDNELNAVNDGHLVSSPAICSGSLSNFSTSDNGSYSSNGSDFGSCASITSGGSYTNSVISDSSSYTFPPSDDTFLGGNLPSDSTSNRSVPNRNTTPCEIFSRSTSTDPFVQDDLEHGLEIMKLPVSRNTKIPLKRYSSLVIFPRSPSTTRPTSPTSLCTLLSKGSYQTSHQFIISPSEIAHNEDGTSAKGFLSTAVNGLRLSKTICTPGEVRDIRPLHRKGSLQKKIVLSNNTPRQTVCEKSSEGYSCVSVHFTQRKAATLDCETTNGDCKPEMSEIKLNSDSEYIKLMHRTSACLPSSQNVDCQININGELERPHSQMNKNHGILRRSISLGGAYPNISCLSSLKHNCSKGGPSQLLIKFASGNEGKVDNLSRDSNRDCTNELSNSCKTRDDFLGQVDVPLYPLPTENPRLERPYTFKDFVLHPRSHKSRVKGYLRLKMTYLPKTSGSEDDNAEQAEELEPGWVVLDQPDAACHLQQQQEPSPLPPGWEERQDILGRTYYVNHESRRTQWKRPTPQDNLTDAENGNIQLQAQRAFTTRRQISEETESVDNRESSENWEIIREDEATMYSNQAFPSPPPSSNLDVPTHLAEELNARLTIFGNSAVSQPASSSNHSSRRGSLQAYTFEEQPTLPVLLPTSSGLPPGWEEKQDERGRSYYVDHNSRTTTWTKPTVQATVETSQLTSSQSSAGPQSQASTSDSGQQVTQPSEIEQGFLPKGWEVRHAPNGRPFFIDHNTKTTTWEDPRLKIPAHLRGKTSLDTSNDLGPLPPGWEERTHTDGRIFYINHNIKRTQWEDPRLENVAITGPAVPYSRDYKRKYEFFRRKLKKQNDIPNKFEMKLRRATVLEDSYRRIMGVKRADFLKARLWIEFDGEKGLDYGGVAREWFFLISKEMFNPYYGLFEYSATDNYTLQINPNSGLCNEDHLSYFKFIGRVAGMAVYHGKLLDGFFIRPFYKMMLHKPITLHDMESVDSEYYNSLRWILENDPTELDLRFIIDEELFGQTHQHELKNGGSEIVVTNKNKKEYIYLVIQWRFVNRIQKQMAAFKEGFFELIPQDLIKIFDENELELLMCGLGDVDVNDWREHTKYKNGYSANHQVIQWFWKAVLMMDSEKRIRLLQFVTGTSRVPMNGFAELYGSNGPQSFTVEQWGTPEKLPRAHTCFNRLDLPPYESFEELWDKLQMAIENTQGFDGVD"}
{"SMILES": "COC(=O)CCCNCCCN1c2ccccc2CCc2ccc(Cl)cc21.COC(=O)CCCNCCCN1c2ccccc2CCc2ccc(Cl)cc21.O=C(O)/C=C/C(=O)O", "inhibition [%]": 46.4}
{"SMILES": "COC(=O)/C=C/C(=O)NCCCN1c2ccccc2CCc2ccc(Cl)cc21", "inhibition [%]": "< 10"}
{"SMILES": "CNCCCN1c2ccccc2CCc2ccc(Cl)cc21", "inhibition [%]": 47.7}
{"SMILES": "Cl.NC(=O)/C=C/CNCCCN1c2ccccc2CCc2ccc(Cl)cc21", "inhibition [%]": 51.3}
{"SMILES": "CN(C)C/C=C/C(=O)NCCCN1c2ccccc2CCc2ccc(Cl)cc21", "inhibition [%]": 42.3}
{"data": "Series 3", "Compound": "C[C@@H]1CN(c2ccc(-c3cc(C(=O)NCCOCCOCCOCCOCCOCCOCCNC(=O)/C=C/c4[nH]cc(C(=O)N[C@@H](CC(N)=O)c5ccc(F)c(Cl)c5)c4-c4ccc(Cl)cc4F)ccc3F)cc2NC(=O)c2ccc(F)cc2C(F)(F)F)C[C@H](C)N1C", "observed": "thermal unfolding", "technique": "differential scanning fluorimetry", "tested at": "5.5 µM", "reading": "higher = more unfolded", "DCAF1": "DDB1- and CUL4-associated factor 1 (DCAF1, Homo sapiens, UniProt Q9Y4B6)", "WDR5": "WD repeat-containing protein 5 (WDR5, Homo sapiens, UniProt P61964)", "sequence of UniProt Q9Y4B6 (whole entry, looked up)": "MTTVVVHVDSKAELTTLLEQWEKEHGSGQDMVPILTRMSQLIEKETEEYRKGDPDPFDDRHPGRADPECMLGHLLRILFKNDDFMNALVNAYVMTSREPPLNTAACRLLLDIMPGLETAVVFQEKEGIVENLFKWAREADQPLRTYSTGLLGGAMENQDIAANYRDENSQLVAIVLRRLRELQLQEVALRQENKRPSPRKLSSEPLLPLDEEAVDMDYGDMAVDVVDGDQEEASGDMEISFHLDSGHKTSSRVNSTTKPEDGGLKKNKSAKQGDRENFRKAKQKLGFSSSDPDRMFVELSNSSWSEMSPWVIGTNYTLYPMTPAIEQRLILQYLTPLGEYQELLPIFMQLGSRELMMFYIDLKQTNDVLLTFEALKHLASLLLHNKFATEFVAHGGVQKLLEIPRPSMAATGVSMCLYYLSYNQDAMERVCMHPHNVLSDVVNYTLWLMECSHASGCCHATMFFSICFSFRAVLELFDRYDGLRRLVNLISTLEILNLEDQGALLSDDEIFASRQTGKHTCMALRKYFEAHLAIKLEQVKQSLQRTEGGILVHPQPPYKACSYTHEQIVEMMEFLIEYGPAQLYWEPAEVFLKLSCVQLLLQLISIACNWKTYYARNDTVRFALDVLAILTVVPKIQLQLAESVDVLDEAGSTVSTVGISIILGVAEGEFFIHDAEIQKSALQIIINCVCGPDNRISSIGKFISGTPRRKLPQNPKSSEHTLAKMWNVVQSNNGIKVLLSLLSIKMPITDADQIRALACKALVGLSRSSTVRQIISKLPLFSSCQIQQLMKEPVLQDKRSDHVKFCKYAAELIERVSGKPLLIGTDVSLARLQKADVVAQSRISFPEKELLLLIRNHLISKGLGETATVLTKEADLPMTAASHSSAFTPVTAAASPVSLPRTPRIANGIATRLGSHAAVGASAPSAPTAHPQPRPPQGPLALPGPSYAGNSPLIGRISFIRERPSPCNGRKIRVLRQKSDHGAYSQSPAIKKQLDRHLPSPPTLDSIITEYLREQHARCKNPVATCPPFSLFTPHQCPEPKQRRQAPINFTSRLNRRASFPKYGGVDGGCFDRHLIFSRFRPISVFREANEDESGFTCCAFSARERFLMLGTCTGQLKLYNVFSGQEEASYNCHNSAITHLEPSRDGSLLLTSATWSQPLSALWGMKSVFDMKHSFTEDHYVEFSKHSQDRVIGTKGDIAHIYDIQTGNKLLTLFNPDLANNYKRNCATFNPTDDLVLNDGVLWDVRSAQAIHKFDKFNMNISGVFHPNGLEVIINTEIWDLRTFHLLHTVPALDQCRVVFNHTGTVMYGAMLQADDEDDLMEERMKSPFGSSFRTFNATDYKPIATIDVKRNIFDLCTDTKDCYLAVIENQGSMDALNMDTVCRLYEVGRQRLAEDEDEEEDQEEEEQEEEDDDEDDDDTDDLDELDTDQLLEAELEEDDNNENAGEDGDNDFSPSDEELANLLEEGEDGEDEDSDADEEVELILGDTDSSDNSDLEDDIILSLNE"}
{"target": "DCAF1", "temperature": "26.2 °C", "SYPRO Orange fluorescence [a.u.]": 7450}
{"target": "WDR5", "temperature": "64.81 °C", "SYPRO Orange fluorescence [a.u.]": 16100}
{"target": "WDR5", "temperature": "37.8 °C", "SYPRO Orange fluorescence [a.u.]": 13800}
{"target": "WDR5", "temperature": "75.61 °C", "SYPRO Orange fluorescence [a.u.]": 51200}
{"target": "WDR5", "temperature": "51.4 °C", "SYPRO Orange fluorescence [a.u.]": 16800}
{"target": "DCAF1", "temperature": "40.2 °C", "SYPRO Orange fluorescence [a.u.]": 11600}
{"target": "DCAF1", "temperature": "68.81 °C", "SYPRO Orange fluorescence [a.u.]": 49500}
{"target": "WDR5", "temperature": "65.41 °C", "SYPRO Orange fluorescence [a.u.]": 16700}
{"target": "DCAF1", "temperature": "27.2 °C", "SYPRO Orange fluorescence [a.u.]": 7650}
{"target": "WDR5", "temperature": "57.81 °C", "SYPRO Orange fluorescence [a.u.]": 15800}
{"target": "WDR5", "temperature": "69.01 °C", "SYPRO Orange fluorescence [a.u.]": 24300}
{"data": "Series 4", "SMILES": "CCCNC(=O)COc1cc(C)c(Cl)c(C)c1", "target": "Sodium-dependent neutral amino acid transporter B(0)AT1 (SLC6A19, Homo sapiens, UniProt Q695T7)", "action": "inhibitor", "cells": "CHO-BC cells", "setting": "unit not given", "sequence of UniProt Q695T7 (whole entry, looked up)": "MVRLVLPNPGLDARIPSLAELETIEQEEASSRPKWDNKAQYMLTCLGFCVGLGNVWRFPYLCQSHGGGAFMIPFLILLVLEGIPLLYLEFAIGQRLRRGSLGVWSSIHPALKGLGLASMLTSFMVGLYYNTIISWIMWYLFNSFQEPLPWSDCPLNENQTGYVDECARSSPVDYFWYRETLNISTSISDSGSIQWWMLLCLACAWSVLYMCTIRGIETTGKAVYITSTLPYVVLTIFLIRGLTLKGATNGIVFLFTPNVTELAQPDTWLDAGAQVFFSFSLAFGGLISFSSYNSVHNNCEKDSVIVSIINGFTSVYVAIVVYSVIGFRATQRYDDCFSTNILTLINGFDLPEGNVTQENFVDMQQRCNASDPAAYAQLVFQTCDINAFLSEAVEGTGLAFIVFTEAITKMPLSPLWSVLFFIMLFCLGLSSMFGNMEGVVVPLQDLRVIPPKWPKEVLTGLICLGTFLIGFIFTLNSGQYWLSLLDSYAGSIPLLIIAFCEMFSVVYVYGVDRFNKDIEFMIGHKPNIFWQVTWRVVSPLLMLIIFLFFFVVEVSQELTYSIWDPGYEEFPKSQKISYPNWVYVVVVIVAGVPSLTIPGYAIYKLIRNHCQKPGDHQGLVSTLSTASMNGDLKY"}
{"technique": "L-[14C]leucine uptake", "tested at": "1 µM", "time": "6 min", "together with": "GPNA 3 mM, JPH203 3 µM", "reference": "uninhibited cells", "remaining transport activity": 0.562}
{"technique": "L-[14C]leucine uptake", "tested at": "0.01 µM", "time": "6 min", "together with": "GPNA 3 mM, JPH203 3 µM", "reference": "uninhibited cells", "remaining transport activity": 0.888}
{"technique": "L-[14C]leucine uptake", "tested at": "10 µM", "time": "6 min", "together with": "GPNA 3 mM, JPH203 3 µM", "reference": "uninhibited cells", "remaining transport activity": 0.286}
{"technique": "L-[14C]leucine uptake", "tested at": "0.003 µM", "time": "6 min", "together with": "GPNA 3 mM, JPH203 3 µM", "reference": "uninhibited cells", "remaining transport activity": 0.961}
{"technique": "L-[14C]leucine uptake", "tested at": "0.1 µM", "time": "6 min", "together with": "GPNA 3 mM, JPH203 3 µM", "reference": "uninhibited cells", "remaining transport activity": 0.85}
{"technique": "L-[14C]leucine uptake", "tested at": "0.001 µM", "time": "6 min", "together with": "GPNA 3 mM, JPH203 3 µM", "reference": "uninhibited cells", "remaining transport activity": 0.949}
{"technique": "L-[14C]leucine uptake", "tested at": "30 µM", "time": "6 min", "together with": "GPNA 3 mM, JPH203 3 µM", "reference": "uninhibited cells", "remaining transport activity": 0.114}
{"technique": "L-[14C]leucine uptake", "tested at": "0.03 µM", "time": "6 min", "together with": "GPNA 3 mM, JPH203 3 µM", "reference": "uninhibited cells", "remaining transport activity": 0.846}
{"technique": "FLIPR membrane potential", "tested at": "0.3 µM", "reference": "no inhibitor", "remaining transport activity": 1.02}
{"technique": "L-[14C]leucine uptake", "tested at": "0.3 µM", "time": "6 min", "together with": "GPNA 3 mM, JPH203 3 µM", "reference": "uninhibited cells", "remaining transport activity": 0.724}
{"technique": "L-[14C]leucine uptake", "tested at": "3 µM", "time": "6 min", "together with": "GPNA 3 mM, JPH203 3 µM", "reference": "uninhibited cells", "remaining transport activity": 0.485}
{"technique": "FLIPR membrane potential", "tested at": "30 µM", "reference": "no inhibitor", "remaining transport activity": 0.278}
